Assay results of several laboratories.
Protocols differ between the studies behind these lines. Values joined by “and” are separate records of one study, mostly repeats; a detail may differ. ± marks the error that the study gave.

Compound | test | system | conditions | scale | endpoint | result
CC(CCC(=O)NCC(=O)O)C1CCC2C3C(O)CC4CC(OC5OC(C(=O)O)C(O)C(O)C5O)CCC4(C)C3CCC12C (centres unmarked) |  | men, C/C genotype, plasma | dose not given, geometric mean |  | plasma concentration | 392 ng/mL
CC(C)[C@@H]1NC(=O)CNC(=O)[C@H](CC(N)=O)NC(=O)[C@H](CCCNC(=N)N)NC(=O)[C@H](Cc2ccc(O)cc2)NC(=O)[C@H](C(C)C)NC(=O)[C@@H](NC(=O)[C@@H](NC(=O)[C@H](CC(N)=O)NC(=O)[C@H](Cc2c[nH]c3ccccc23)NC(=O)[C@H](C)NC(=O)[C@H](Cc2ccccc2)NC(=O)CNC(=O)[C@H](CCCCN)NC(=O)[C@H](Cc2ccccc2)NC(=O)[C@H](Cc2ccccc2)NC(=O)[C@H](CCCCN)NC(=O)OCC2c3ccccc3-c3ccccc32)C(C)C)CSSC[C@@H](C(=O)N[C@@H](Cc2c[nH]cn2)C(=O)N[C@@H](CCCNC(=N)N)C(=O)N[C@@H](CCCNC(=N)N)C(=O)N[C@@H](C)C(=O)N[C@@H](CC(N)=O)C(N)=O)NC(=O)[C@H](C(C)C)NC(=O)[C@H](CCCNC(=N)N)NC1=O |  | ICR mouse, blood | intramammary, 10 mg/kg, day 5, 3 d dosing |  | globulin | 18.85 ± 0.06 g/L
C[C@H](NCc1ccc(-c2ccc(C(F)(F)F)cc2)cc1)C(N)=O |  | Sprague-Dawley rat, brain | oral, 10 mg/kg, 2 h |  | concentration | 6720 ng/g
C[C@H](O)[C@@H](NC(=O)[C@H]1CCCN1C(=O)[C@@H](CCCCN)NC(=O)[C@@H](CO)NC(=O)[C@@H](Cc1ccc(O)cc1)NC(=O)[C@@H](CC(N)=O)NC(=O)CCOCCOCCOCCNC(=O)CN1CCN(CC(=O)O)CCN(CC(=O)O)CCN(CC(=O)O)CC1)C(=O)N[C@H](CC(=O)O)C(=O)N[C@H](CCCNC(=N)N)C(=O)N[C@H](CCC(N)=O)C(=O)N[C@H](Cc1ccc(O)cc1)C(=O)N[C@H](Cc1c[nH]cn1)C(=O)N[C@H](Cc1ccccc1)C(N)=O [gallium-68 labelled] |  | BALB/c nude mice U-87 MG tumour, muscle | intravenous, 1.85 MBq, 1 h, radiolabelled |  | tissue uptake | 0.18 ± 0.02 %ID/g
CCCCC[C@H]1C(=O)N[C@H](C)C(=O)N(C)[C@@H](CCCCC)C(=O)N(C)[C@H](C)C(=O)N(C)[C@@H](CCCCC)C(=O)N(C)[C@H](C)C(=O)N(C)[C@@H](CCCCC)C(=O)N(C)[C@H](C)C(=O)N1C | PAMPA |  | 500 µM, pH 7.4, UV/ELSD/MS detection |  | log Papp | -5.36
CC[C@H](C)[C@H](NC(=O)[C@H](CCCCN)NC(=O)CNC(=O)[C@H](CC(C)C)NC(=O)[C@H](Cc1ccccc1)NC(=O)[C@H](CCCCN)NC(=O)[C@H](CO)NC(=O)[C@H](Cc1ccccc1)NC(=O)[C@H](Cc1c[nH]c2ccccc12)NC(=O)[C@H](CCC(N)=O)NC(=O)[C@@H](NC(=O)[C@H](Cc1ccccc1)NC(=O)CCCCCNC(=O)CN1CCN(CC(=O)O)CCN(CC(=O)O)CCN(CC(=O)O)CC1)C(C)C)C(=O)N[C@@H](CCC(=O)O)C(=O)N1CCC[C@H]1C(=O)N[C@@H](CC(=O)O)C(=O)N[C@H](C(=O)N[C@@H](CO)C(=O)N[C@@H](CCC(N)=O)C(=O)N[C@H](C(=O)N[C@@H](CCC(N)=O)C(=O)N[C@@H](CC(=O)O)C(=O)N1CCC[C@H]1C(=O)N[C@@H](CC(N)=O)C(=O)N[C@@H](CC(=O)O)C(=O)N[C@@H](CCC(N)=O)C(=O)N[C@@H](Cc1ccc(O)cc1)C(=O)N[C@@H](CCC(=O)O)C(=O)N1CCC[C@H]1C(=O)N[C@@H](Cc1ccccc1)C(=O)O)C(C)C)C(C)C [copper-64 labelled] | dynamic PET | mouse both sexes, CT26 tumour, untreated, tumour | intravenous, 100 µCi/mouse, 630 s |  | SUVmean | 0.75 SUV
CCCC[C@H]1C(=O)N(C)[C@@H](CCCC)C(=O)N[C@@H](CCCNC(=O)CN2CCN(CC(=O)O)CCN(CC(=O)O)CCN(CC(=O)O)CC2)C(=O)N[C@H](C(=O)NCC(N)=O)CSCC(=O)N[C@@H](Cc2ccc(O)cc2)C(=O)N(C)[C@@H](C)C(=O)N[C@@H](CC(N)=O)C(=O)N2CCC[C@H]2C(=O)N[C@@H](Cc2c[nH]cn2)C(=O)N[C@@H](CC(C)C)C(=O)N(C)CC(=O)N[C@@H](Cc2c[nH]c3ccccc23)C(=O)N[C@@H](CO)C(=O)N[C@@H](Cc2c[nH]c3ccccc23)C(=O)N1C [gallium-68 labelled] |  | NOD/SCID mice with CHO-hPD-L1 xenograft, spleen | 10 min post injection |  | tissue uptake | 3.78 ± 0.54 %ID/g
C#Cc1c(F)ccc2cc(O)cc(-c3ncc4c(N5CC6CCC(C5)N6C(=O)OCOC(=O)CCC)nc(OC[C@@]56CCCN5C[C@H](F)C6)nc4c3F)c12 | refers to: prodrug | mouse whole blood | 1 µM |  | t1/2 | 1.81 min
NC1CCN(C(=O)Oc2ccc(C3CCCC4(C3)OOC3(O4)C4CC5CC(C4)CC3C5)cc2)CC1 (racemic) |  | male Sprague-Dawley rat, plasma | intravenous, 10 mg/kg |  | MRT(0-inf) | 10.1 h
CSCC[C@H](N)C(=O)N[C@@H](C)C(=O)N[C@@H](Cc1c[nH]c2ccccc12)C(=O)N[C@@H](Cc1c[nH]cn1)C(=O)N[C@@H](CC(=O)O)C(=O)N[C@@H](CC(=O)O)C(=O)N[C@@H](CCC(=O)O)C(=O)N[C@@H](CCC(=O)O)C(=O)N[C@@H](Cc1ccccc1)C(=O)N[C@@H](C)C(=O)N[C@@H](CCCNC(=N)N)C(=O)N[C@@H](CCCNC(=N)N)C(=O)N[C@@H](CCCNC(=N)N)C(=O)N[C@@H](CCCNC(=N)N)C(=O)NCCCCCC(=O)NCCCCC(NC(=O)CCCCCNC(=O)[C@H](CCCNC(=N)N)NC(=O)[C@H](CCCNC(=N)N)NC(=O)[C@H](CCCNC(=N)N)NC(=O)[C@H](CCCNC(=N)N)NC(=O)[C@H](C)NC(=O)[C@H](Cc1ccccc1)NC(=O)[C@H](CCC(=O)O)NC(=O)[C@H](CCC(=O)O)NC(=O)[C@H](CC(=O)O)NC(=O)[C@H](CC(=O)O)NC(=O)[C@H](Cc1c[nH]cn1)NC(=O)[C@H](Cc1c[nH]c2ccccc12)NC(=O)[C@H](C)NC(=O)[C@@H](N)CCSC)C(=O)NCCCCC(NC(=O)C(CCCCNC(=O)CCCCCNC(=O)[C@H](CCCNC(=N)N)NC(=O)[C@H](CCCNC(=N)N)NC(=O)[C@H](CCCNC(=N)N)NC(=O)[C@H](CCCNC(=N)N)NC(=O)[C@H](C)NC(=O)[C@H](Cc1ccccc1)NC(=O)[C@H](CCC(=O)O)NC(=O)[C@H](CCC(=O)O)NC(=O)[C@H](CC(=O)O)NC(=O)[C@H](CC(=O)O)NC(=O)[C@H](Cc1c[nH]cn1)NC(=O)[C@H](Cc1c[nH]c2ccccc12)NC(=O)[C@H](C)NC(=O)[C@@H](N)CCSC)NC(=O)CCCCCNC(=O)[C@H](CCCNC(=N)N)NC(=O)[C@H](CCCNC(=N)N)NC(=O)[C@H](CCCNC(=N)N)NC(=O)[C@H](CCCNC(=N)N)NC(=O)[C@H](C)NC(=O)[C@H](Cc1ccccc1)NC(=O)[C@H](CCC(=O)O)NC(=O)[C@H](CCC(=O)O)NC(=O)[C@H](CC(=O)O)NC(=O)[C@H](CC(=O)O)NC(=O)[C@H](Cc1c[nH]cn1)NC(=O)[C@H](Cc1c[nH]c2ccccc12)NC(=O)[C@H](C)NC(=O)[C@@H](N)CCSC)C(N)=O (some centres unmarked) |  | mouse C57BL/6 female, small intestine | 3 h, radioiodinated peptide | relative to: total radioactivity | tissue distribution | 15.3% and 18.8% and 13.3%
CN1Cc2cc(Cl)ccc2-n2c(nnc2C2CCN(c3cccc(F)n3)CC2)C1 |  | male Sprague-Dawley rat, plasma | intravenous, 0.03 mg/kg, 1 h |  | concentration | 1.87 ng/mL
CC[C@H](C)[C@H](NC(=O)[C@H](C)NC(=O)[C@H](CCCCN)NC(=O)[C@H](CC(C)C)NC(=O)[C@@H](N)Cc1ccccc1)C(=O)N[C@@H](CCCCN)C(=O)N[C@@H](CCCCN)C(=O)N[C@@H](Cc1ccccc1)C(=O)NCC(=O)N[C@@H](CCCCN)C(=O)N[C@@H](CCC(=O)O)C(=O)N[C@@H](Cc1ccccc1)C(=O)N[C@@H](CCCCN)C(=O)N[C@@H](CCCCN)C(=O)N[C@H](C(=O)NCC(=O)N[C@@H](C)C(=O)N[C@@H](CCCCN)C(=O)N[C@@H](CC(C)C)C(=O)N[C@@H](CCCCN)C(=O)O)[C@@H](C)CC |  | human red blood cells | 2 mg/L, 1 h |  | hemolysis | 0.327% and 1.12%
CC[C@H](C)[C@H](NC(=O)CNC(=O)[C@H](CCSC)NC(=O)[C@H](CCC(N)=O)NC(=O)[C@H](C)NC(=O)[C@H](CCC(N)=O)NC(=O)[C@@H](NC(=O)[C@H](CC(C)C)NC(=O)[C@H](C)NC(=O)[C@H](CO)NC(=O)[C@H](CCSC)NC(=O)[C@H](CCC(=O)O)NC(=O)[C@H](CC(C)C)NC(=O)[C@H](Cc1ccc(O)cc1)NC(=O)[C@H](CO)NC(=O)[C@H](CCC(=O)O)NC(=O)[C@H](CCC(N)=O)NC(=O)[C@H](CCCNC(=N)N)NC(=O)[C@H](CCCCN)NC(=O)[C@H](CC(=O)O)NC(=O)[C@H](CC(C)C)NC(=O)[C@H](CC(N)=O)NC(=O)[C@H](Cc1ccccc1)NC(=O)[C@H](CCC(=O)O)NC(=O)[C@H](CCCCN)NC(=O)[C@@H](NC(=O)[C@H](CC(C)C)NC(=O)[C@H](CCC(=O)O)NC(=O)[C@H](CCC(=O)O)NC(=O)[C@@H](NC(=O)[C@@H](NC(=O)[C@H](CCCNC(=N)N)NC(=O)[C@H](CCCCN)NC(=O)[C@H](C)NC(=O)[C@H](Cc1ccccc1)NC(=O)[C@H](CCC(=O)O)NC(=O)[C@H](CCC(=O)O)NC(=O)[C@H](CC(C)C)NC(=O)[C@@H](N)CO)C(C)C)C(C)C)C(C)C)[C@@H](C)CC)C(=O)N[C@@H](CO)C(=O)N[C@@H](CCC(=O)O)C(=O)N[C@@H](CCCNC(=N)N)C(=O)N[C@H](C(=O)N[C@H](C(=O)N[C@@H](CCC(=O)O)C(=O)N[C@H](C(=O)N[C@H](C(=O)N[C@@H](CC(C)C)C(=O)N[C@@H](CCCNC(=N)N)C(=O)N[C@@H](Cc1c[nH]cn1)C(=O)N[C@@H](C)C(=O)N[C@@H](C)C(=O)N[C@@H](CCC(N)=O)C(=O)N[C@H](C(=O)N[C@@H](CC(C)C)C(=O)N[C@@H](CCCCN)C(=O)O)[C@@H](C)O)C(C)C)[C@@H](C)CC)[C@@H](C)CC)[C@@H](C)CC | LC-MS/MS, noncompartmental | ICR CD-1 mouse, male, plasma | iv, 1 mg/kg |  | AUC(0-last)/AUC(0-inf) ratio | 0.89
O=C1NC2(CC2)COc2ncc(F)cc2[C@H]2COCCN2c2ccn3ncc1c3n2 |  | Sprague-Dawley rats, female, blood | oral, 20 mg/kg/day, end of recovery, 4-week subacute toxicity |  | haematocrit | 38.9 ± 2%
COc1nc(CC=C(C)CC=CC(C)=CC(C)C(OC2OC(CO)C(O)C(O)C2O)C(C)=CCO)c(C)c(O)c1OC (centres unmarked) | glucuronidation, substrate | human kidney microsomes | 15 min, pH 7.4 |  | Km | 73.7 ± 1.43 µM
NC(=O)c1cc(-c2ccsc2)ccc1OCCc1cc(F)cc(F)c1 |  | male CD-1 mouse liver microsomes | concentration not given, 30 min, pH 7.4 |  | metabolized fraction | 90%
CC(=O)NCCCC[C@@H]1NC(=O)[C@H](Cc2c[nH]c3c(C)cccc23)NC(=O)[C@H]([C@@H](C)O)NC(=O)[C@H](CC(N)=O)NC(=O)[C@@H](NC(C)=O)C(C)(C)SSC(C)(C)[C@@H](C(=O)N[C@@H](Cc2ccc(OCCN)cc2)C(=O)N[C@@H](Cc2ccc3ccccc3c2)C(=O)NC2(C(=O)N[C@@H](CCC(=O)O)C(=O)N[C@@H](CC(N)=O)C(=O)N[C@@H](Cc3cccnc3)C(=O)N(C)CC(N)=O)CCOCC2)NC1=O |  | human, plasma | oral, 300 mg, single dose, healthy volunteers |  | CL/F | 7070 L/h

For quick reference, copied from above:
Compound | test | system | conditions | scale | endpoint | result
NC(=O)c1cc(-c2ccsc2)ccc1OCCc1cc(F)cc(F)c1 |  | male CD-1 mouse liver microsomes | concentration not given, 30 min, pH 7.4 |  | metabolized fraction | 90%
